Published values of several laboratories.
Protocols differ between the studies behind these lines. Values joined by “and” are separate records of one study, mostly repeats; a detail may differ. Numbers after ± are the reported error.
ALB: Albumin (ALB, Homo sapiens, UniProt P02768)
uncharacterized protein: uncharacterized protein (Spodoptera exigua, UniProt F1CEY0)
Sequence of UniProt Q16774 (whole entry, unmodified, looked up): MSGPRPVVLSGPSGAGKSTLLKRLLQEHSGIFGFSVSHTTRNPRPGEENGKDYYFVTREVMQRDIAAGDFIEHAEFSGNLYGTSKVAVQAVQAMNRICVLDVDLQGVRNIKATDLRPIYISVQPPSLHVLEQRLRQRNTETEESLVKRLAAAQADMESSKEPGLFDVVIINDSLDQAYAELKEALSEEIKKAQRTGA
Sequence of UniProt P51575 (whole entry, unmodified, looked up): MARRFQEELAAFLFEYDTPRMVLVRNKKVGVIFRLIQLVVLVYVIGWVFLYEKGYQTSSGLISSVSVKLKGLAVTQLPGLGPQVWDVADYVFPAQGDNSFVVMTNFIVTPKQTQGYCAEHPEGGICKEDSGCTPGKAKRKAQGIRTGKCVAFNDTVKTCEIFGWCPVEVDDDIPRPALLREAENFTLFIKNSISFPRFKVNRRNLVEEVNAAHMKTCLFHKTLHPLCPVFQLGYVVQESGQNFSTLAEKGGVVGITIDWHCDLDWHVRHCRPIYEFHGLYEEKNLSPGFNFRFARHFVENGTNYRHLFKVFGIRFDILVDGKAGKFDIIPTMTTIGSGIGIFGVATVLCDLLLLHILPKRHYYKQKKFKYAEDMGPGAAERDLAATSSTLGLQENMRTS
Sequence of UniProt Q15185 (whole entry, looked up): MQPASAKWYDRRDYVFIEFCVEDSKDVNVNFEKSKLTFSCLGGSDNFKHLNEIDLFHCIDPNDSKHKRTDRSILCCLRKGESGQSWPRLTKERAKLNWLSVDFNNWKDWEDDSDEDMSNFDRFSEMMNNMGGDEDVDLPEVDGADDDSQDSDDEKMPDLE
Sequence of UniProt P35354 (whole entry, looked up): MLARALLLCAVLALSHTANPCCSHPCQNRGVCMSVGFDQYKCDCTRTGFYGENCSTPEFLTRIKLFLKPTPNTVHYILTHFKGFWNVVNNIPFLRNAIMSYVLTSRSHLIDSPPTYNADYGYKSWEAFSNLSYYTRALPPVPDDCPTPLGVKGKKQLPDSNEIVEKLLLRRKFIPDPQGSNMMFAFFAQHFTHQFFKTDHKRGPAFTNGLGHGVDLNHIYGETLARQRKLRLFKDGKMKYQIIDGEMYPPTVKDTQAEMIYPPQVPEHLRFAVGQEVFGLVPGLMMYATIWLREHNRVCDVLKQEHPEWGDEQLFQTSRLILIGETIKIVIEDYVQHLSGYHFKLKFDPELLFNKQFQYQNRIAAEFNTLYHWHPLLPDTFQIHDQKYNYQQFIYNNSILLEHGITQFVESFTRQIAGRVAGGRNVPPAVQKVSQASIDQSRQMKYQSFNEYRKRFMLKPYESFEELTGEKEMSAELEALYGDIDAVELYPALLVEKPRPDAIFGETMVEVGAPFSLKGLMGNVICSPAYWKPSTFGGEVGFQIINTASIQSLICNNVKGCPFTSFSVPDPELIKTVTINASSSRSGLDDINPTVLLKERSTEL
Sequence of UniProt Q16288 (whole entry, looked up): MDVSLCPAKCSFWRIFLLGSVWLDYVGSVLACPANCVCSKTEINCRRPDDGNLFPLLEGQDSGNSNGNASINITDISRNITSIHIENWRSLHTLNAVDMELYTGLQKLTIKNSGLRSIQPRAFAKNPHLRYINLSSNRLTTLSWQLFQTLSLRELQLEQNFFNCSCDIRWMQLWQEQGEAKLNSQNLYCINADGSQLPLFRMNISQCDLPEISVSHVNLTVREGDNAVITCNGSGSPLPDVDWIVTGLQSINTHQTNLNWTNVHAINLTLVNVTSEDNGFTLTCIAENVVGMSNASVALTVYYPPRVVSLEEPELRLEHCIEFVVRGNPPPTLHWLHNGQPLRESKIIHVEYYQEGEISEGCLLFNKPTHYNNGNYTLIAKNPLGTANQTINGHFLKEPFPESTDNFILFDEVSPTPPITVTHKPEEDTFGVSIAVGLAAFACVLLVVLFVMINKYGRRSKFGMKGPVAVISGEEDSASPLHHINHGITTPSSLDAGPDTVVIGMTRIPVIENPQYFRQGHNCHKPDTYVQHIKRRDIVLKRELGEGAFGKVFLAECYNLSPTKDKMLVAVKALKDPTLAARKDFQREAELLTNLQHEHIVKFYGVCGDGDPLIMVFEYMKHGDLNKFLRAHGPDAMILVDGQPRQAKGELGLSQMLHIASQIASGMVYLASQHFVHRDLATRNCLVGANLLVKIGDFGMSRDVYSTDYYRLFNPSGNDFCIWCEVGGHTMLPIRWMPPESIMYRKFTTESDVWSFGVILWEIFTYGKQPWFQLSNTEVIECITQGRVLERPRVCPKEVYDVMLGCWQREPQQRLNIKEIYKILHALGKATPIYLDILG
Sequence of UniProt O75581 (whole entry, looked up): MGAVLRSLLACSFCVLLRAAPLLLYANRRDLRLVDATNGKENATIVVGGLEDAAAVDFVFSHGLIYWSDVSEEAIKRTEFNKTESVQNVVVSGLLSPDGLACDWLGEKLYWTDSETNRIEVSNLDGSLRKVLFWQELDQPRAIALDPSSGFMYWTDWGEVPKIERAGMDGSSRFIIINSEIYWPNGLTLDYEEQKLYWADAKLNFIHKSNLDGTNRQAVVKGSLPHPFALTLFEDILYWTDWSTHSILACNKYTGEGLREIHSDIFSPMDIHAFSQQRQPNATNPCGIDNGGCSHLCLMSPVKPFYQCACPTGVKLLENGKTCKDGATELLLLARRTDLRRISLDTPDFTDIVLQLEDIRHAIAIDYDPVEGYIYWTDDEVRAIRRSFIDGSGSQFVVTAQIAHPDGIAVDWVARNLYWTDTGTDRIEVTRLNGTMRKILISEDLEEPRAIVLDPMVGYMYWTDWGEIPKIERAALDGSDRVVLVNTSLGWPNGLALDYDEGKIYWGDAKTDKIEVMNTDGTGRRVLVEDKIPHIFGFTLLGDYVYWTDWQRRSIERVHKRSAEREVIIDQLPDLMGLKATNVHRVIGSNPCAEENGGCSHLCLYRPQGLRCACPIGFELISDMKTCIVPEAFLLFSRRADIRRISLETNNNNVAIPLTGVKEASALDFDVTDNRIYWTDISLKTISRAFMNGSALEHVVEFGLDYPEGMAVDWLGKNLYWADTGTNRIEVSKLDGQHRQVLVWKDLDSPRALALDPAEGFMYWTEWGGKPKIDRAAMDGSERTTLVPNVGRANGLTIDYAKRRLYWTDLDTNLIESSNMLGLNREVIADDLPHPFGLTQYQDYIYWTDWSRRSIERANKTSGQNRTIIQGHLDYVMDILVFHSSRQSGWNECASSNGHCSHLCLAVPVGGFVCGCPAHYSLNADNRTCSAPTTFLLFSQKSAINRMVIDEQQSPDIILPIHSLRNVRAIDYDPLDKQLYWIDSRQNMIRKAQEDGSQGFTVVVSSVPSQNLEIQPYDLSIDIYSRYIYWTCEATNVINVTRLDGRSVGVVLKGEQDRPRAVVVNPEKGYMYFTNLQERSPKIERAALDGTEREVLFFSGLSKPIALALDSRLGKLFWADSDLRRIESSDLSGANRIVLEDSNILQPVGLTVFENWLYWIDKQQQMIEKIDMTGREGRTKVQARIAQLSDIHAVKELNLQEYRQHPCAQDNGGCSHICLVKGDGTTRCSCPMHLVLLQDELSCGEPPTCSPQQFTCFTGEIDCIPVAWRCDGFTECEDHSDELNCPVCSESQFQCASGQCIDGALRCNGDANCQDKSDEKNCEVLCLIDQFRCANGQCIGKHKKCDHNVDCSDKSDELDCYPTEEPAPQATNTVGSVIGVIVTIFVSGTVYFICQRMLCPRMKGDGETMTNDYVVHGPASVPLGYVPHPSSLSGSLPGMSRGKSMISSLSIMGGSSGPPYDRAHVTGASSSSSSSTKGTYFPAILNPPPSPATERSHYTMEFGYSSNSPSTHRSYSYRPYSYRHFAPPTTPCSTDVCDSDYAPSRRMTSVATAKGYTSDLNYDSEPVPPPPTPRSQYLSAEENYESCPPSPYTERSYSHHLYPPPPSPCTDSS
Sequence of UniProt P25021 (whole entry, looked up): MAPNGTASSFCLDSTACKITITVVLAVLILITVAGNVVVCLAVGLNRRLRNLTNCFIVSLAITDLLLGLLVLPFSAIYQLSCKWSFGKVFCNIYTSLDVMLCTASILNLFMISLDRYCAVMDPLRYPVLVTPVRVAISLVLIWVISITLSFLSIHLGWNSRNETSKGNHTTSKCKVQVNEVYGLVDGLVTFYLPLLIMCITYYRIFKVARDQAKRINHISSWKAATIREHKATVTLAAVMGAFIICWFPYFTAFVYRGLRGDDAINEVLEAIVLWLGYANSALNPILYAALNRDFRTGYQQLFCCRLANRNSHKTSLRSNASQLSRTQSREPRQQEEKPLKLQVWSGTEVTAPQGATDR
Sequence of UniProt P31941 (whole entry, looked up): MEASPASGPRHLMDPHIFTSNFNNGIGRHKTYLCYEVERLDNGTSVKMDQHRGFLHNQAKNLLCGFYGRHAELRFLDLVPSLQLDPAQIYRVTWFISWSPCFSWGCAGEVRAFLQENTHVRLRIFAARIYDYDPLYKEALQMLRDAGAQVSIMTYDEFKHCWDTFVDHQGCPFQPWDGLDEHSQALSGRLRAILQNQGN

For `OC[C@H]1O[C@@H](Oc2cc3c(O)cc(O)cc3[o+]c2-c2ccc(O)c(O)c2)[C@H](O)[C@@H](O)[C@@H]1O`, “binding enthalpy change” read -3.53 kcal/mol (ALB; van't Hoff analysis; concentration not given).
For `Cc1occc(=O)c1[O-].[Cl-].[W+4].c1cc[cH-]c1.c1cc[cH-]c1`, the enthalpy change was 2.01 kcal/mol (ALB; binding, van't Hoff fluorescence quenching; concentration not given).
`C=CC(=O)N1CCC[C@@H](n2nc(-c3ccc(Oc4ccccc4)cc3)c3c(N)ncnc32)C1` has a remaining activity of 116% (NTRK3 (Homo sapiens, UniProt Q16288); 1 µM).
`CC1CCCN(C(=O)c2cc3ncccn3n2)C1` (stereo not shown) has a fold enrichment of 0.833 (DNA mismatch repair protein Msh6 (Homo sapiens, UniProt P52701); binding, affinity selection mass spectrometry; reference: other proteins in batch).
`O=C(COP(=O)(O)O)[C@@H](O)[C@H](O)[C@H](O)COP(=O)(O)O` — result for “thermal stability ratio”: 0.511 and 0.7 and 0.51 (Prostaglandin E synthase 3 (Homo sapiens, UniProt Q15185); thermal proteome profiling, item: PTGES3; HepG2 cell lysate; concentration not given, 57 over 37 °C; reference: compound over control).
`COC(=O)c1ccccc1O` has a relative fluorescence of 71.6% (uncharacterized protein; binding, competitor, fluorescence displacement; 20 µM, pH 7.4, with: 1-NPN 20 µM; reference: 1-NPN alone).
`Nc1nc2c(ncn2[C@@H]2O[C@H](COP(=O)(O)O)[C@@H](O)[C@H]2O)c(=O)[nH]1` gave a reaction rate of 1.89 s⁻¹ and -1.42 s⁻¹ and -0.65 s⁻¹ (GUK1 (Homo sapiens, UniProt Q16774, R44A); enzyme activity, NADH-coupled; 7.812 µM).
For `C=CC(=O)N1CCC(COCC(=O)N2CCN(c3nc(-c4cnc(N)nc4C(F)F)nc(N4CCOC[C@@H]4C)n3)CC2)CC1`, the remaining binding was 100% (BMPR1A (Homo sapiens, UniProt P36894); KINOMEscan; 1 µM).
`CCCC(CCC)c1nc2c(Nc3ccc(C#CCCCCCCCCN)cc3)nc3ccccc3c2[nH]1` — result for off-target affinity: “inactive” (HRH2 (Homo sapiens, UniProt P25021); PDSP screening).
`CCCCCCCCCCCCCCCCC` has a relative fluorescence of 82.8% (uncharacterized protein; binding, competitor, fluorescence displacement; 20 µM, pH 7.4, with: 1-NPN 20 µM; reference: 1-NPN alone).
With `O=C(O)c1ccc(Nc2ncc3c(n2)-c2ccc(Cl)cc2C(c2c(F)cccc2F)=NC3)cc1` the remaining activity was 123% (eEF-2K(h); kinase activity; 1 µM).
`Nc1ncnc2c1ncn2[C@@H]1O[C@H](COP(=O)(O)OP(=O)(O)O)[C@@H](O)[C@H]1O` has a ΔH of -0.176 kcal/mol (GUK1 (Homo sapiens, UniProt Q16774); ITC; molar ratio 3.053).
With `O=c1nc(SCc2cc(F)cc(C(F)(F)F)c2)nc(SCc2csc3ccc(Cl)cc23)[nH]1` the decatenated DNA was 0% (TOP2B (Homo sapiens, UniProt Q02880); decatenation; 125 µM, replicate 1).
With `CC[C@H](C)[C@@H]1NC(=O)[C@H]([C@@H](C)O)NC(=O)[C@@H]2CCCN2C(=O)[C@@H](NC(=O)CN)CSSC[C@@H]2NC(=O)CNC(=O)[C@H](C)NC(=O)[C@H](CC(C)C)NC(=O)[C@@H]3CSSC[C@@H](C(=O)NCC(=O)O)NC(=O)[C@H](Cc4ccccc4)NC(=O)CNC(=O)[C@H](CC(N)=O)NC(=O)[C@@H]4CCCN4C(=O)CNC(=O)[C@H](CSSC[C@H](NC(=O)[C@H](CCCNC(=N)N)NC(=O)[C@H](CCC(N)=O)NC(=O)[C@H](CCCNC(=N)N)NC(=O)[C@H](CCCCN)NC(=O)[C@H](C(C)C)NC(=O)[C@H]([C@@H](C)O)NC(=O)[C@H](CC(N)=O)NC1=O)C(=O)N[C@@H](CCCCN)C(=O)N[C@@H](CCC(N)=O)C(=O)N[C@@H](CC(=O)O)C(=O)N[C@@H](CO)C(=O)N[C@@H](CC(=O)O)C(=O)N3)NC(=O)[C@H](C(C)C)NC2=O` the kon was 1.35e+06 ± 180000 M⁻¹ s⁻¹ (Low-density lipoprotein receptor-related protein 6, E1 domain (LRP6, Homo sapiens, UniProt O75581); binding, SPR; pH 7.5).
For `Cc1cc(-c2ccnc3[nH]cc(F)c23)cc(F)c1[C@@]1(O)[C@H](C)CN(C2CCS(=O)(=O)CC2)C[C@@H]1C`, “probe labelling inhibition” read -28.2% (JAK1 (Homo sapiens, UniProt P23458); ATP/ADP probe binding, KiNativ; HEK293T lysate; 0.1 µM, activation loop domain 1).
For `Cc1ccccc1C(=O)Nc1nc2ccccc2[nH]1`, the displacement was 1 ± 1% (ADORA2A (Homo sapiens, UniProt P29274); binding, radioligand competition; 10 µM, with: [3H]ZM241385).
`C#Cc1c(F)ccc2cc(O)cc(-c3ncc4c(N5CC6CCC(C5)N6)nc(OC[C@@]56CCCN5C[C@H](F)C6)nc4c3F)c12` gave an affinity loss of 5 to 10 fold (GTPase KRas, GppNHp-bound (KRAS, Homo sapiens, UniProt P01116, Q61R); reference: Q61R-GppNHp).
With `C1CCCC1.C1CCCC1.[Cl][W][Cl]` the entropy change was 89.7 J/(mol K) (ALB; binding, van't Hoff fluorescence quenching; concentration not given).
For `O=C(C1=C(O)C(=O)N(c2ccc(Br)cc2F)C1C1CCCCC1)C1CC1` (stereo not shown), the Hill slope was -0.4 ± 0.07 (CCR1 (Homo sapiens, UniProt P32246); inverse agonist; U2OS; no agonist).
The calcium influx of `Nc1ncnc2c1ncn2[C@@H]1O[C@H](COP(=O)(O)CP(=O)(O)OP(=O)(O)O)[C@@H](O)[C@H]1O` is reported as 100% and 99.3% and 87.2% (P2X purinoceptor 1 (P2RX1, Homo sapiens, UniProt P51575, K215A); calcium influx; 316 nM; reference: ionomycin response).
`NC(N)=NCCC[C@H](N)C(=O)Nc1ccc2ccccc2c1` has a Km of 3 µM (Puromycin-sensitive aminopeptidase (Rattus norvegicus, UniProt F1M9V7); substrate).
Under “plasma membrane localization”, `CC(=C/C(=O)O)/C=C/C=C(\C)C1C=C2C(C)(C)CCCC2(C)O1` (stereo not shown) is recorded as 0.95 (Rhodopsin (RHO, Homo sapiens, UniProt P08100, P23H); immunostaining, item: opsin; COS-7 transfected; 30.00 µM, unit not given; reference: surface over total stained cells).
`COc1cc(O)c2c(c1)oc(=O)c1c3cc(O)c(O)cc3oc21` gave a fluorescence increase of 26.8% (MAL12 (Saccharomyces cerevisiae S288c, UniProt P53341); ANS fluorescence; 0.5 µM, hydrophobic exposure).
`CC1=C(/C=C/C(C)=C/C=C/C(C)=C/C=O)C(C)(C)CCC1` gave a relative koff of 1.81 ± 0.02 (Rhodopsin (RHO, Bos taurus, UniProt P02699, I189A); retinal release, Trp FRET; lipid bicelles; 28 °C, I189A mutant; reference: wild-type rhodopsin).
`CC[C@H](C)[C@@H]1NC(=O)[C@H](Cc2ccc(-c3ccccc3)cc2)NC(=O)[C@H](CC(C)C)NC(=O)[C@@H]2CCCN2C(=O)[C@@H](NC(=O)[C@H](CCCNC(=N)N)NC(=O)[C@H](CCCNC(=N)N)NC(C)=O)CSSC[C@@H](C(=O)N[C@@H](CCCNC(=N)N)C(=O)N[C@@H](CCCNC(=N)N)C(N)=O)NC(=O)[C@H](C(C)C)NC(=O)[C@@H]2CCCN2C(=O)[C@H](CC(=O)O)NC(=O)[C@H](Cc2ccc(O)cc2)NC(=O)[C@H](CO)NC1=O`: “lowest bound protein concentration” 0.04 µM (GTPase KRas, GDP-bound (KRAS, Homo sapiens, UniProt P01116, G12D); affinity selection mass spectrometry; mixture library 3, with: protein titration up to 2.5 µM; lower is stronger binding).
`Nc1ncnc2c1ncn2[C@@H]1O[C@H](CSCC[C@H](N)C(=O)O)[C@@H](O)[C@H]1O` gave a binding stoichiometry of 0.94 ± 0.017 (O-methyltransferase (Sorghum bicolor, UniProt A0A1B6PFV1); ITC; concentration not given, with: RSV+).
`NC/C(=C\F)COc1cccc(Cn2c(=S)[nH]c(=O)c3[nH]cnc32)c1` has an inhibition of 103% (Amine oxidase copper-containing 3 (Canis lupus familiaris, UniProt A0A8I3MYY3); inhibitor; dog adipose tissue; 0.037 µM).
For `N[C@H](CNC(=O)c1ccc(-c2cccc(F)c2)s1)C(=O)O`, the Hill slope was 1.65 (Glutamate receptor ionotropic, NMDA 1, with GluN2A (Grin1, Rattus norvegicus, UniProt P35439); with: glutamate 300 µM).
The relative fluorescence of `CCCCCCCCCCCCCCCCO` is reported as 67.5% (uncharacterized protein; binding, 1-NPN competitive displacement; protein 2.0 µM, with: 1-NPN 20 µM; reference: 1-NPN without compound, lower = stronger binding).
For `COc1cc(NC(=O)c2cnn(-c3ccc([N+](=O)[O-])cc3)c2C(F)(F)F)cc(OC)c1`, the selectivity ratio was 0.3 (PTGS2 (Homo sapiens, UniProt P35354); enzyme activity, inhibitor; reference: COX-1 IC50 over COX-2 IC50).
With `CCC1(O)CCCN(C(=O)c2ccc(-c3ccc(F)c(NC(=O)CCl)c3)cc2)C1` (stereo not shown) the protein adduct was 0% (DNA dC->dU-editing enzyme APOBEC-3A (Homo sapiens, UniProt P31941); covalent modifier, intact protein mass spectrometry, item: adduct +26691 Da; 25 µM, 3 h, 1-fold molar excess).

Some of these lines once more:
For `Cc1ccccc1C(=O)Nc1nc2ccccc2[nH]1`, the displacement was 1 ± 1% (ADORA2A (Homo sapiens, UniProt P29274); binding, radioligand competition; 10 µM, with: [3H]ZM241385).
`C#Cc1c(F)ccc2cc(O)cc(-c3ncc4c(N5CC6CCC(C5)N6)nc(OC[C@@]56CCCN5C[C@H](F)C6)nc4c3F)c12` gave an affinity loss of 5 to 10 fold (GTPase KRas, GppNHp-bound (KRAS, Homo sapiens, UniProt P01116, Q61R); reference: Q61R-GppNHp).
With `C1CCCC1.C1CCCC1.[Cl][W][Cl]` the entropy change was 89.7 J/(mol K) (ALB; binding, van't Hoff fluorescence quenching; concentration not given).
